Assay results from different studies.
Every numbered part comes from another study and shows a few of its results, in no order.

Set 1
Target: Hepatocyte nuclear factor 3-beta, forkhead domain (FOXA2, Homo sapiens, UniProt Q9Y261, residues 142-269)
Technique: protein-binding microarray
Molecule type: double-stranded DNA, one strand shown
Medium: in vitro
Concentration: not given
Notes: k-mer, scored over probes, only values ≥0.25
Reading: higher = stronger binding
Target sequence (chain): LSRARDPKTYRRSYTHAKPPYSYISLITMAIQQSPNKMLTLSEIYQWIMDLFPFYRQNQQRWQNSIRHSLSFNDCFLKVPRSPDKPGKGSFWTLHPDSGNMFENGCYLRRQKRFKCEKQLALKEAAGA
`ATTATATG` has an E-score of 0.27.
`ATATATAA` gave an E-score of 0.439.
`ATTAGCAA` has an E-score of 0.256.
`ATCACAAC` gave an E-score of 0.307.

Set 2
Target: RNA binding protein fox-1 homolog 2, RRM domain, GST-SBP tag (RBFOX2, Homo sapiens, UniProt O43251-10, residues 100-194)
Technique: RNA Bind-n-Seq
Molecule type: RNA
Medium: in vitro
Concentration: 365 nM
Notes: natural RNA segment, single round, ends assumed
Baseline: no-protein control
Reading: higher = stronger binding
Constant ends, left off below: GGGAGUUCUACAGUCCGACGAUC … UGGAAUUCUCGGGUGCCAA
Target sequence (chain): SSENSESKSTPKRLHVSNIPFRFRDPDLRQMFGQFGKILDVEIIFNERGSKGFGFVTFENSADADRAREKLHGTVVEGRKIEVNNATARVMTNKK
`GUCAUAUUUCAUUCAAAUGCCAAUUAAUAAAGCAAAGCUGACUGAAGUUGCCUCCCCUGGUGUUCCACCAUCCACAGUUUCUGUAACAUUUACCCAGUGGACAUGAGCGC` — result for “RBNS enrichment (R)”: 0.313.
Under “RBNS enrichment (R)”, `AUAUUUGUAACUGGUACAAGAUGAAGGACAGCAGCUUUCCAUCCCUAGUUCAGAGCCCCCGUUCCCCAGGGUCCUGUGGGCUGAGCGGCUGGGGCUGGGGCUGCCCACGU` is recorded as 0.39.
`AGCUGCAGGUGGUUUCAUAGGGUAAAAUCCAAGAAAAGAGAAGGAUGUGUGGGGUUUCUAUUAGAAGAUAAUUUUGUUCUCAUUUUACCUUUUCUUUUAUGAUCCUUCUC`: “RBNS enrichment (R)” 0.6.
Under “RBNS enrichment (R)”, `GCUUUUUUCACAUGUUUUAUGGAAUUGUUCACAUGAUUUGAAAUAAUAAAAUGUAGAAAGAAAACACAAAAACUUCCGUGUUCUUUUCUCCUGGGGACUGAGCAAGAAGA` is recorded as 1.16.
For `UGUAUAAAAUAAAGUGUAGUUUACAAAAAAAAGAAACGUAAAAAAAAAAAACUACAUGCAAAACUGUAGGUAAUGAAAAUGAUGUAUUUUUUUCAUCUUUUUUUGUUAAC`, “RBNS enrichment (R)” read 1.07.
`UCCCCUCUUAACCAUGACCAGCGGAAGCAGGUGUGUGUGACCAGGGCACGGGGUGAAGAAUCUGCCCAUCAAGGUGGGUGGGCCUCAUGUCGCUGCCCCCACCAGAGUCC`: “RBNS enrichment (R)” 0.149.
`UUUUAAAUAAUUACUAGCAACUCUGUGACUACAUUUAUUUUUAUUUUUUUUAGAGACAGGAUCUUGCUAUGUUGCCCAGGCUAGAGAGCAGUGGCUUUUCACAGACAAAG`: “RBNS enrichment (R)” 0.787.

Set 3
Target: Interferon regulatory factor 5, full length, phosphomimetic (IRF5, Homo sapiens, UniProt Q13568-2, residues 1-514, K96S/S451D/S453D/S456D/S462D)
Technique: protein-binding microarray
Molecule type: double-stranded DNA, one strand shown
Medium: in vitro
Concentration: 250 nM
Notes: 60-bp whole probe
With: salmon DNA 0.4 mg/ml
Baseline: random background probes
Reading: higher = stronger binding
Constant ends, left off below: GCCTAGCAC … GTCTTGATTCGCTTGACGCTGCTG
With `TTAGGTATCGGGCCTGGGTTAGTGCTA` the log fluorescence was 1.33 z-score.
`GACGAACTGGGGCCTGGAGACGTGCTA` has a log fluorescence of -0.69 z-score.
`GACGACCTGAGTATCGAGACGTGCTAG` gave a log fluorescence of 1.36 z-score.
With `GCCGATATCAGTCTCGAGACGTGCTAG` the log fluorescence was 1.82 z-score.
The log fluorescence of `TCATTTTTCCGAGTGAGACTGTGCTAG` is reported as 0.653 z-score.
`GAGGGTTTCGGACTGGGGACGTGCTAG` has a log fluorescence of 2.06 z-score.

Other studies, line by line
For `PhoQ, residues 284 288 289 292 302 303 ALAMYF`, the fold induction was 3.47 (PhoP, residues 12 14 15 18 19 LHSVW (Escherichia coli, UniProt P23836); Sort-seq, refers to: YFP reporter; E. coli; PhoQ-PhoP variant library, with: 10 µM Mg2+; baseline: high Mg2+ state, higher = stronger signaling).

A few entries again (other studies, line by line):
For `PhoQ, residues 284 288 289 292 302 303 ALAMYF`, the fold induction was 3.47 (PhoP, residues 12 14 15 18 19 LHSVW (Escherichia coli, UniProt P23836); Sort-seq, refers to: YFP reporter; E. coli; PhoQ-PhoP variant library, with: 10 µM Mg2+; baseline: high Mg2+ state, higher = stronger signaling).
